Values quoted from earlier work as cited in several papers.
Compare with care: the assays were run in different laboratories. ± marks the error that the study gave. No end group written: not given here.
UniProt P35968, sequence (whole entry, looked up): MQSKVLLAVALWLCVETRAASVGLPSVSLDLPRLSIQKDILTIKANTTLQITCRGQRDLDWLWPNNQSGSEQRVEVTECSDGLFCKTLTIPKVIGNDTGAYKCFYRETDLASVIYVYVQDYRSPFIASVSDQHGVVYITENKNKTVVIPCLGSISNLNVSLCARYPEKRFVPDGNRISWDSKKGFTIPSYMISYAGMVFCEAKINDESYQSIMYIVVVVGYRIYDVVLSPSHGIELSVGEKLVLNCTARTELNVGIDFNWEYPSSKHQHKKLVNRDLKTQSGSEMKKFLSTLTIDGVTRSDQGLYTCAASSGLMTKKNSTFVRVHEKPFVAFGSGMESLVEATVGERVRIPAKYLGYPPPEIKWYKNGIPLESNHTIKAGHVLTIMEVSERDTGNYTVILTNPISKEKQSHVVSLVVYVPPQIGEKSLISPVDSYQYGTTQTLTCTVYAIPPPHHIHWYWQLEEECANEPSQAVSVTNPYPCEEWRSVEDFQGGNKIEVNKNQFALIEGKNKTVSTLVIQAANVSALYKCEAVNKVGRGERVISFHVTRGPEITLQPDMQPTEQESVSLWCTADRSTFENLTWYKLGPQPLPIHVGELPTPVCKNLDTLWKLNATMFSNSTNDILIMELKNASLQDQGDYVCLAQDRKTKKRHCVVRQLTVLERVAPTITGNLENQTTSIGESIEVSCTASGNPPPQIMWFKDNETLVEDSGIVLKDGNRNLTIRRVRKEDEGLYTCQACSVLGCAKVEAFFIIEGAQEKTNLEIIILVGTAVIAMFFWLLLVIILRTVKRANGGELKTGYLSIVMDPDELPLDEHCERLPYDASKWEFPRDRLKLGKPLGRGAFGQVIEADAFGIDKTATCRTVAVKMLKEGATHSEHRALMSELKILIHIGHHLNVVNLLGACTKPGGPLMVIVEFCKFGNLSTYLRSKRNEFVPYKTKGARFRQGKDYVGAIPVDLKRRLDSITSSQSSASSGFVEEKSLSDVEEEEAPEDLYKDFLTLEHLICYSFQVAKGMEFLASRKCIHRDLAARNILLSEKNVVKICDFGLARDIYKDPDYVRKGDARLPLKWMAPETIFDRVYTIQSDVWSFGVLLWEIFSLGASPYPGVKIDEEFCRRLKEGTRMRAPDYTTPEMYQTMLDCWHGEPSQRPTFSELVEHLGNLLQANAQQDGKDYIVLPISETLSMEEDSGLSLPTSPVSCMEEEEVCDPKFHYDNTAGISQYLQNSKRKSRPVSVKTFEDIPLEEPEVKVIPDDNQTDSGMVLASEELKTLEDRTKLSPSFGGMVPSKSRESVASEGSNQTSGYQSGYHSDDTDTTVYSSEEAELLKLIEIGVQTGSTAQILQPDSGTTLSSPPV
UniProt P9WHE9, sequence (whole entry, looked up): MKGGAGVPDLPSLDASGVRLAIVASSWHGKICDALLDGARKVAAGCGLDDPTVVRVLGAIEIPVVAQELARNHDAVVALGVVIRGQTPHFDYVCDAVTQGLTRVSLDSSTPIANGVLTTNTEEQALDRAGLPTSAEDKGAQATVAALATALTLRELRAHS
UniProt O35627, sequence (whole entry, unmodified, looked up): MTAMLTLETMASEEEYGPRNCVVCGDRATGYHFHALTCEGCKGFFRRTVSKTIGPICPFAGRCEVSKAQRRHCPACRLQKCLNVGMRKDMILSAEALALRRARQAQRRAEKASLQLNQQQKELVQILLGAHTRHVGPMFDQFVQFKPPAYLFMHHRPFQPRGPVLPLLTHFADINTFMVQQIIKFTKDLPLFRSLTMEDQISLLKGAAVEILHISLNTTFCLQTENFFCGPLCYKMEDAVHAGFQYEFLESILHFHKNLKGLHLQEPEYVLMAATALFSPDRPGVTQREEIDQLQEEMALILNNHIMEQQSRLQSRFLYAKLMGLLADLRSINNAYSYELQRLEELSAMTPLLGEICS
UniProt P14902, sequence (whole entry, looked up): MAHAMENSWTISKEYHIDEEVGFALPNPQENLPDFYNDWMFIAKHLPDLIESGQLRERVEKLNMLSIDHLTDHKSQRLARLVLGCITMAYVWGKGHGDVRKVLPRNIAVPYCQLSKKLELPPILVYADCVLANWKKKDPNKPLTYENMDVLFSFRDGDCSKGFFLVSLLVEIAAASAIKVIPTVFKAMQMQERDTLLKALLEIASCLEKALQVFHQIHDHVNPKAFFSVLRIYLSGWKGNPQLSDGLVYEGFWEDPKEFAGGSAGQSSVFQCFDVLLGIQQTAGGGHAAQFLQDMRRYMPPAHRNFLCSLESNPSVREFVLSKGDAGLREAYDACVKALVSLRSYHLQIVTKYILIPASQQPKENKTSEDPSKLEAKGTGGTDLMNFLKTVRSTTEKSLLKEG
UniProt P35462, sequence (whole entry, looked up): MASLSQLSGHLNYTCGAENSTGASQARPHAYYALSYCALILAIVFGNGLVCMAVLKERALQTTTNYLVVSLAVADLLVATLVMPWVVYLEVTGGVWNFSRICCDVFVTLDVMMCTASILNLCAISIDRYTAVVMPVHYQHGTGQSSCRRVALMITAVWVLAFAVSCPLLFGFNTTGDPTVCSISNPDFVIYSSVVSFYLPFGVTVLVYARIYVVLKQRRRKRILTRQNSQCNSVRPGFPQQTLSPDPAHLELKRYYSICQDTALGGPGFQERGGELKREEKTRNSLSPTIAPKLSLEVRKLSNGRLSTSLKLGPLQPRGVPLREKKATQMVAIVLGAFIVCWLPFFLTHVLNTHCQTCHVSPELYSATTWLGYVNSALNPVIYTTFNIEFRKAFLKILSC
UniProt P30872, sequence (whole entry, looked up): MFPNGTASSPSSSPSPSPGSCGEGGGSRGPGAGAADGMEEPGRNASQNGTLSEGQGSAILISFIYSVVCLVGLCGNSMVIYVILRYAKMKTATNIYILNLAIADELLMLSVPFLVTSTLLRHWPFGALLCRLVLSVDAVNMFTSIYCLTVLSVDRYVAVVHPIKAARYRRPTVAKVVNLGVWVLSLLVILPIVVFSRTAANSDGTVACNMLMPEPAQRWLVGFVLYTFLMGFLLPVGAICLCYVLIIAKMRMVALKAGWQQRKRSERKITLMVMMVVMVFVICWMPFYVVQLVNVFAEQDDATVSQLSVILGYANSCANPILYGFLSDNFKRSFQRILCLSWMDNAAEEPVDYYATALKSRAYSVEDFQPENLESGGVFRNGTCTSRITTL

Molecule	target or system	test	system	conditions	scale	endpoint	value
CC(=O)[C@H]1CC[C@H]2[C@@H]3CCC4=CC(=O)CC[C@]4(C)[C@H]3CC[C@]12C	CYP21A2	21-hydroxylation, substrate	–	–	–	Km	0.21 ± 0.03 µM
CC(=O)O	ADP-forming acetyl-CoA synthetase (Entamoeba histolytica, UniProt C4LUV9)	substrate	–	–	–	Km	14000 ± 610 µM
O=c1c2nc(Br)n3c2ncn1[C@@H]1O[C@H](COP(=O)(O)OP(=O)(O)OC[C@H]2O[C@@H]3[C@H](O)[C@@H]2O)[C@@H](O)[C@H]1O	cADPR receptor, sea urchin	–	sea urchin egg homogenate	concentration not given	–	activity	inactive
COc1cc(Nc2c(C#N)cnc3cc(OCCCN4CCN(C)CC4)c(OC)cc23)c(Cl)cc1Cl	hiPSC-derived cardiomyocytes	contractility	–	72 h	–	lowest effective concentration	4.73 µM
O=P(O)(O)OC[C@H]1O[C@H](OP(=O)(O)OP(=O)(O)O)[C@H](O)[C@@H]1O	Trypanosoma cruzi HGPRT isoform A	enzyme activity, substrate	–	IMP formation, added: hypoxanthine 60 µM	–	Km	31 ± 5 µM
KCNTATCATQRLANFLVHSSNNFGAILSSTNVGSNTY (amylin (human); not fully specified (C-terminus, bridges); cysteine pairing not given here; sequence looked up)	AMY3 receptor, human	–	peptide	–	baseline: compound over human αCGRP	potency ratio	10 fold
O=C1c2cccc3c2[C@H](CCC3)CN1[C@@H]1CN2CCC1CC2	–	–	healthy volunteers, plasma	oral, dose not given, netupitant-palonosetron alone, rifampicin study	–	Vz/F	799 L
O=c1c2nc(Br)n([C@@H]3O[C@@H]4COP(=O)(O)O[C@H]4[C@H]3O)c2nc2[nH]c(-c3ccccc3)cn12	PDE4D	cyclic nucleotide hydrolysis, substrate or inhibitor, isothermal titration calorimetry	–	–	–	Km or Ki	8.84 µM
COc1ccc(N2CCC3(CCN(CCCSc4nnc(-c5ccccc5)n4C)CC3)CC2)cc1	D(3) dopamine receptor (DRD3, Homo sapiens, UniProt P35462)	–	–	–	baseline: D2 Ki over D3 Ki	selectivity ratio	~1000
O=C(Nc1ncnc2c1ncn2[C@@H]1O[C@@H]2COP(=O)(O)OC2C1O)c1ccccc1 (stereo in doubt)	PDE1B	cyclic nucleotide hydrolysis, substrate or inhibitor, isothermal titration calorimetry	–	–	–	Km or Ki	9.86 µM
Cc1ccccc1-c1cc(N2CCN(C)CC2)ncc1N(C)C(=O)C(C)(C)c1cc(C(F)(F)F)cc(C(F)(F)F)c1	–	–	healthy volunteers, plasma	oral, dose not given, netupitant-palonosetron alone, ketoconazole study	–	Vz/F	2340 L
O=C1c2ccccc2-c2c1c1ccc([N+](=O)[O-])cc1c(=O)n2C[C@H](O)CO	prostate DU-145	cell growth	–	–	–	GI50	0.04 µM
CNC(C)(C)C(=O)O	rat hippocampal neurons	KCl-stimulated uptake, substrate	–	5 min, added: 60 mM KCl	–	Km	~40 µM
O=c1cc(-c2ccccc2)oc2cc(O)c(O)c(O)c12	catechol O-methyltransferase	substrate	–	–	–	Km	1970 ± 389 µM
Nc1nc(N)c2c(n1)[nH]c1cccc(Sc3ccccc3)c12	Vascular endothelial growth factor receptor 2 (KDR, Homo sapiens, UniProt P35968)	kinase activity, inhibitor	–	–	–	IC50	22.6 ± 4.5 µM
Cn1cnc2ncn(Cc3nc(CCc4ccc(Cl)cc4)no3)c(=O)c21	Transient receptor potential cation channel subfamily A member 1 (Trpa1, Rattus norvegicus, UniProt Q6RI86)	antagonist	rat AITC-induced nocifensive model, plasma	–	–	IC90	1.74 ± 0.15 µM
N[C@@H](Cc1c[nH]c2ccccc12)C(=O)O	Indoleamine 2,3-dioxygenase 1, ferric form (IDO1, Homo sapiens, UniProt P14902)	heme redox potential	–	–	baseline: substrate-free enzyme	redox potential shift	~46 mV
Oc1ccc(/C=C/c2cccc3ccccc23)cc1O	Transthyretin, fibrils (TTR, Homo sapiens, UniProt P02766)	fluorescence	–	–	baseline: native over misfolded protofibrillar TTR	emission maximum shift	> 100 nm
CC(C)NCc1ccc(C[C@@H]2NC(=O)[C@@H](N(C)C(=O)c3ccc4ccccc4c3)NC(=O)[C@H](Cc3ccccc3)NC(=O)[C@H](Cc3ccccc3)NC(=O)[C@H](CCCCN)NC(=O)[C@@H](N)CSSC[C@@H](C(=O)O)NC(=O)[C@H](CO)NC(=O)[C@H]([C@@H](C)O)NC(=O)[C@H](Cc3ccc(O)cc3)NC(=O)[C@H]([C@@H](C)O)NC2=O)cc1	Somatostatin receptor type 1 (SSTR1, Homo sapiens, UniProt P30872)	–	–	–	baseline: compound over parent peptide	affinity increase	5 fold
Nc1nc2c(nc(Br)n2[C@@H]2O[C@@H]3COP(=O)(O)O[C@H]3[C@H]2O)c(=O)[nH]1	PDE1C	cyclic nucleotide hydrolysis, substrate or inhibitor, isothermal titration calorimetry	–	–	–	Km or Ki	62.8 µM
O=C(O)CNC(=O)c1ccccc1[131I]	–	–	normal rat, urine	60 min, added: co-injected 99mTc-1	–	percent injected dose	91.1 ± 3.7 %ID

Molecule	target or system	test	system	conditions	scale	endpoint	value
N[C@@H](CO)C(=O)O	serine hydroxymethyltransferase, human	substrate	–	–	–	Km	100 µM
COc1ccc(/C=C\c2cc(OC)c(OC)c(OC)c2)cc1O	tubulin	[3H]colchicine binding, inhibitor	–	5.0 µM, added: 1.0 µM tubulin, 5.0 µM [3H]colchicine	–	inhibition	95 to 100%
Nc1cc[nH]c(=O)n1	nucleoside transporter C1	–	Trypanosoma brucei, procyclic forms	–	–	Km	0.048 ± 0.009 µM
COc1cc(O)c(C(=O)/C=C/c2ccccc2)c(OC)c1	NF-κB	reporter gene and DNA binding, inhibitor	–	added: TNFα	–	effective concentration	175 µM
C[C@@]12CC[C@H]3c4ccc(O)cc4CC[C@@H]3[C@H]1CC[C@H]2O (single isomer, unassigned)	HT-22	cell protection	–	added: glutamate 20 mM	–	EC50	1.17 µM
Nc1nc2c(nc(Sc3ccc(Cl)cc3)n2C2O[C@@H]3COP(=O)(O)O[C@H]3[C@H]2O)c(=O)[nH]1 (stereo in doubt)	PDE10	cyclic nucleotide hydrolysis, substrate or inhibitor, isothermal titration calorimetry	–	–	–	Km or Ki	6.04 µM
CCCc1nn(C)c2c(=O)[nH]c(-c3cc(S(=O)(=O)N4C[C@@H](C)N[C@@H](C)C4)ccc3OCC)nc12	PDE5	enzyme activity, inhibitor	–	–	baseline: comparable products	relative potency	1.47 fold
CNC(=O)c1cc(Oc2ccc(NC(=O)Nc3ccc(Cl)c(C(F)(F)F)c3)c(F)c2)ccn1	hiPSC-derived cardiomyocytes	contractility	–	72 h	–	lowest effective concentration	3.7 µM
Nc1nc2c(ncn2[C@@H]2O[C@@H]3COP(=O)(O)O[C@H]3[C@H]2O)c(=O)[nH]1	PDE1B	cyclic nucleotide hydrolysis, substrate or inhibitor, isothermal titration calorimetry	–	–	–	Km or Ki	5.35 µM
CC[C@H](C)[C@H](NC(=O)[C@H](CCCCN)NC(=O)[C@H](Cc1c[nH]cn1)NC(=O)[C@@H](N)CCCNC(=N)N)C(=O)N[C@@H](CC(C)C)C(=O)N[C@@H](Cc1c[nH]cn1)C(=O)N[C@@H](CCCNC(=N)N)C(=O)N[C@@H](CC(C)C)C(=O)N[C@@H](CC(C)C)C(=O)N[C@@H](CCC(N)=O)C(=O)N[C@@H](CCC(=O)O)C(=O)NCC(=O)N[C@@H](CO)C(=O)O	Nuclear receptor subfamily 1 group I member 3, with RXR (Mus musculus, UniProt O35627)	binding, isothermal titration calorimetry	–	pH 7.2, 25°C, added: TCPOBOP, fourfold excess	–	−TΔS	1.5 kcal/mol
Nc1ncnc2c1ncn2[C@@H]1O[C@H](COP(=O)(O)OP(=O)(O)OP(=O)(O)O)[C@@H](O)[C@H]1O	pcrA (Geobacillus stearothermophilus, UniProt P56255)	substrate	–	–	–	Km	~3 µM
C[C@]12CC[C@@H]3c4cc(C56CC7CC(CC(C7)C5)C6)c(O)cc4CC[C@H]3[C@@H]1CC[C@@H]2O	HT-22	cell protection	–	added: iodoacetic acid 40 µM	–	EC50	0.152 µM
Nc1ncnc2c1nc(Br)n2[C@@H]1O[C@@H]2COP(=O)(O)O[C@H]2[C@H]1O	PDE6	cyclic nucleotide hydrolysis, substrate or inhibitor, isothermal titration calorimetry	–	–	–	Km or Ki	68.8 µM
CCCCC/C=C\C[C@H](O)/C=C/C=C\C/C=C\CCCC(=O)O	human 15-lipoxygenase-1	substrate specificity kcat/KM AA/LA	–	–	–	AC50	1.1 ± 0.1 µM
CC(=O)O[C@H]1Cc2ccccc2N(C(N)=O)c2ccccc21	–	protection against seizures	male NMRI mouse	MES-induced seizures	–	ED50	23 mg/kg
CCOC(=O)c1ncn2c1CN(C)C(=O)c1cc(F)ccc1-2	GABAA receptor α2β3γ2	modulator, two-electrode voltage clamp	Xenopus oocytes	1 to 10 µM, added: GABA at EC50	baseline: GABA response	efficacy	115 ± 4%
CO[C@@H]1[C@@H]2OP(=O)(O)OC[C@H]2O[C@H]1n1c(Sc2ccc(Cl)cc2)nc2c(N)ncnc21	PDE2A	cyclic nucleotide hydrolysis, substrate or inhibitor, isothermal titration calorimetry	–	–	–	Km or Ki	14.5 µM
O=c1[nH]c(=O)c2[nH]c(=O)c(=O)n(C[C@H](O)[C@H](O)[C@H](O)CO)c2[nH]1	6,7-dimethyl-8-ribityllumazine synthase (ribH, Mycobacterium tuberculosis, UniProt P9WHE9)	enzyme kinetics	–	pH 7.0, added: substrate 2 fixed, 1 varied	lower = tighter substrate binding	Ks	25 ± 4 µM
O=C(O)c1cc2cc(Br)ccc2oc1=O	Glutamate NMDA receptor; Grin1/Grin2b (Grin1/Grin2b, Rattus norvegicus, UniProt P35439+Q00960)	–	–	concentration not given	–	inhibition	100%
C[C@@H]1[C@H](c2c(F)ccc(F)c2F)C[C@H](NC(=O)c2cnc3c(c2)C[C@@]2(C3)C(=O)Nc3ncccc32)C(=O)N1CC(F)(F)F	CGRP receptor	inhibitor	plasma	–	–	EC90	0.014 µM

Repeated from above:
Molecule	target or system	test	system	conditions	scale	endpoint	value
COc1cc(Nc2c(C#N)cnc3cc(OCCCN4CCN(C)CC4)c(OC)cc23)c(Cl)cc1Cl	hiPSC-derived cardiomyocytes	contractility	–	72 h	–	lowest effective concentration	4.73 µM
O=P(O)(O)OC[C@H]1O[C@H](OP(=O)(O)OP(=O)(O)O)[C@H](O)[C@@H]1O	Trypanosoma cruzi HGPRT isoform A	enzyme activity, substrate	–	IMP formation, added: hypoxanthine 60 µM	–	Km	31 ± 5 µM
KCNTATCATQRLANFLVHSSNNFGAILSSTNVGSNTY (amylin (human); not fully specified (C-terminus, bridges); cysteine pairing not given here; sequence looked up)	AMY3 receptor, human	–	peptide	–	baseline: compound over human αCGRP	potency ratio	10 fold
O=C1c2cccc3c2[C@H](CCC3)CN1[C@@H]1CN2CCC1CC2	–	–	healthy volunteers, plasma	oral, dose not given, netupitant-palonosetron alone, rifampicin study	–	Vz/F	799 L
O=c1c2nc(Br)n([C@@H]3O[C@@H]4COP(=O)(O)O[C@H]4[C@H]3O)c2nc2[nH]c(-c3ccccc3)cn12	PDE4D	cyclic nucleotide hydrolysis, substrate or inhibitor, isothermal titration calorimetry	–	–	–	Km or Ki	8.84 µM
COc1ccc(N2CCC3(CCN(CCCSc4nnc(-c5ccccc5)n4C)CC3)CC2)cc1	D(3) dopamine receptor (DRD3, Homo sapiens, UniProt P35462)	–	–	–	baseline: D2 Ki over D3 Ki	selectivity ratio	~1000
